Published values collected from several papers.
Parts stem from different laboratories: compare values within a part only. Positions count from the first letter of the parent shown.

Study 1 — method: protein-binding microarray; form: double-stranded DNA, one strand shown; sample: in vitro; tested at: 940 nM top; setting: 60-bp whole probe; with: salmon DNA 0.4 mg/ml; relative to: random background probes; reading: higher = stronger binding; shared flanks, not repeated: GCCTAGCAC … GTCTTGATTCGCTTGACGCTGCTG
Target: Interferon regulatory factor 5, full length, phosphomimetic (IRF5, Homo sapiens, UniProt Q13568-2, residues 1-514, S451D/S453D/S456D/S462D)
| Oligonucleotide | fitted relative affinity [z-score] |
| --- | --- |
| GTGGCAGGCCCTCGGGCTCCGTGCTAG | -1.28 |
| TCATCTTTTCTTTTCTTACTGTGCTAG | 2.02 |
| TCAATTTTAGTTTTCATACTGTGCTAG | 1.46 |
| GACGGTATCGGGCTCGGGACGTGCTAG | 2.84 |
| TTAGCTATCGGTCTCGGTTAGTGCTAG | 2.76 |
| GACGATATCAGTCTCGAGAGGTGCTAG | 0.61 |
| TTCGATATCAGTTTCGATTAGTGCTAG | 7.94 |
| TTAGGTATAGACTATCGGTTAGTGCTA | -0.116 |
| TTAGCTCTCAGTTTCGATTAGTGCTAG | 8.52 |
| GTCGGACTGCTACTGCTGACGTGCTAG | -0.546 |
| ATTCATATATATATGAAAAAGTGCTAG | -0.0169 |
| TTTTCACTTTCTTTAACATAGTGCTAG | 3.5 |
| GACGGTATCCGGACTGGGGACGTGCTA | -0.191 |
| GACGATTTCGGTCTCGGGACGTGCTAG | 2.12 |
| GACGGTTTCGACTCTCGGGACGTGCTA | 7.45 |
| TTAGATCTTAGACTGGATTAGTGCTAG | -0.294 |
| TTAGATATCGACACTGGGTTAGTGCTA | 0.308 |
| GACGGTCTCCTTATCCTGCCGTGCTAG | 0.507 |

Study 2 — target: CCNE1, cyclin fold, Cln2 fusion (human); method: yeast growth competition, sequencing; sample: yeast; setting: weak parent motif; relative to: not given; reading: higher = stronger binding
Starting sequence: AKAP12 docking peptide (human); GSPLKKLFTSTGL
| Change | normalised enrichment score |
| --- | --- |
| ASPLKKLFTSTGL [G1A] | 1.03 |
| GSPLKKLFASTGL [T9A] | 0.298 |
| GSPAKKLFTSTGL [L4A] | 0.265 |
| GSPLKKLATSTGL [F8A] | 0.108 |
| GSPLRKLLTSTGL [K5R F8L] | 0.616 |
| GAPLKKLFTSTGL [S2A] | 1.07 |
| GSPLKKLFTSAGL [T11A] | -0.685 |

Study 3 — method: RNA Bind-n-Seq; form: RNA; sample: in vitro; tested at: 1 µM; setting: whole 134-nt RNA, ends assumed; with: 150 mM KCl; relative to: input library; reading: higher = stronger binding
Target: Ras GTPase-activating protein-binding protein 1, C-terminal RGG region (G3BP1, Homo sapiens, UniProt Q13283)
Sequence of UniProt Q13283 (whole entry, looked up): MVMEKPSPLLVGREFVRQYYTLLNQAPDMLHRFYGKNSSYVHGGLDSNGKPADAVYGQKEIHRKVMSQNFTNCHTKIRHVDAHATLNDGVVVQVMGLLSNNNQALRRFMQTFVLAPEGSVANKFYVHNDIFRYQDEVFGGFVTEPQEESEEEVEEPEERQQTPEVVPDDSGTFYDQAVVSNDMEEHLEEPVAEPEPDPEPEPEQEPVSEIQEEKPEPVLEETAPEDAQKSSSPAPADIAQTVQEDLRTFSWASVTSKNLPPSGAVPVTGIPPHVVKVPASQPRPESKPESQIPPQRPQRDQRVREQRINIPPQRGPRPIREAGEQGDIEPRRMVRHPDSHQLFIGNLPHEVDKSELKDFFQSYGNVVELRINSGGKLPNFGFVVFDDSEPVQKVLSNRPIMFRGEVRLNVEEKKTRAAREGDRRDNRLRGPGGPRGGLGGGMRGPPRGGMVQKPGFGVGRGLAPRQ
| Oligonucleotide | log2 enrichment |
| --- | --- |
| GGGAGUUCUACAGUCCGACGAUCUUGUUUUUUUUUUGUUCUUUUUUUCCAUGUCACUAAAGGCCCUCGGGACCAAGGAUCACGUCAUGACUCCGGUGAGUUCACACGUGGUGGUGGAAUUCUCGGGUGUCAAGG | -1.01 |
| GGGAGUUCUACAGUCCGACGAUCCAAGUCCUGUGCUACACAUCGUAUGUACCGAAUCGGGGUUUGGUUUGGGUUUGGGGAAAGUAUUAUGUUACGCCGUUCGGAUCUGCACUUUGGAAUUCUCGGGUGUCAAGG | -0.826 |
| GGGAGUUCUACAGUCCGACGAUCGUCCUGUGCUACACAUCGUAUGUACCGAAUCGGAAAAAAAGGAAAAAAAGGUUUUUGGAAAGUAUUAUGUUACGCCGUUCGGAUCUGCACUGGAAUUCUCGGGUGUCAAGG | -1.81 |
| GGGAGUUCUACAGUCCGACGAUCCAAGUCCUGUGCUACACAUCGUAUGUACCGAAUCGGAAAAAAAGGUGGUUUUUGGAAAGUAUUAUGUUACGCCGUUCGGAUCUGCACUUCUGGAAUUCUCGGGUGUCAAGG | -1.78 |
| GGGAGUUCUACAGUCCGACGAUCAGUCCUGUGCUACACAUCGUAUGUACCGAAUCGGGGAGGGGAGGGGAAAAAAAGGGGAAAGUAUUAUGUUACGCCGUUCGGAUCUGCACUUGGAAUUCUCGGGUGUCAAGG | 1.55 |
| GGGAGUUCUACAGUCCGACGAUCACCAUGCAGGUGGGCAUCUUUGGGAAGUGGGGCAAGGGGGGGAUAGGGAGGGGAAAAACACUUUGGGAACAGGUGGUCCCAGGUCGUUUCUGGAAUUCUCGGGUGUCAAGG | -1.17 |
| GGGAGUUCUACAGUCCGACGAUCAAGUCCUGUGCUACACAUCGUAUGUACCGAAUCGGGAAAGGGUGGGUUUUUUUGGGAAAGUAUUAUGUUACGCCGUUCGGAUCUGCACUUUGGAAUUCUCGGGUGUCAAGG | 1.04 |
| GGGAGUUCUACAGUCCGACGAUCUCCUGUGCUACACAUCGUAUGUACCGAAUCGGGGUUUUUGGGGUUUUUGGGGUUUUUGGAAAGUAUUAUGUUACGCCGUUCGGAUCUGCAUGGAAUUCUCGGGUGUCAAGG | -0.0749 |
| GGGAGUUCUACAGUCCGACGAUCAAGGCACGUAAGUUUAAGCUUUUUUUUUUUUUAAGUUAAUGGGAAAAAUUUGAGACGCAAUACCAAUACUUAGGAUUUUGGUCUUGGUGUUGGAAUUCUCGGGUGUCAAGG | -1.4 |
| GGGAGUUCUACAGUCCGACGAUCUGGCCCUGGUGGCAUGCGGGGAGGAAGAGGUGGCCUCAUGGAUCGUGGUGGUCCCGGUGGAAUGCUCAGAGGUGGCCGUGGUGGAGACAGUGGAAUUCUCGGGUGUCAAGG | 1.89 |

Further values, each from its own experiment
| Molecule | target | assay | system | setting | scale | quantity | result |
| --- | --- | --- | --- | --- | --- | --- | --- |
| PhoQ, residues 284 288 289 292 302 303 SLANKL | PhoP, residues 12 14 15 18 19 TQAIL (Escherichia coli, UniProt P23836) | Sort-seq, refers to: YFP reporter | E. coli | PhoQ-PhoP variant library, with: 10 µM Mg2+ | relative to: high Mg2+ state, higher = stronger signaling | fold induction | 4.72 |

Repeated from above (study 1):
| Oligonucleotide | fitted relative affinity [z-score] |
| --- | --- |
| TTAGCTATCGGTCTCGGTTAGTGCTAG | 2.76 |
| TTAGGTATAGACTATCGGTTAGTGCTA | -0.116 |
| TTTTCACTTTCTTTAACATAGTGCTAG | 3.5 |
| TTAGCTCTCAGTTTCGATTAGTGCTAG | 8.52 |
